Literature values, collected from citations in different studies.
Lines come from different studies, so protocols differ. ± gives the spread as reported. No end group written: not given here.
Sequence of UniProt O35627 (whole entry, looked up): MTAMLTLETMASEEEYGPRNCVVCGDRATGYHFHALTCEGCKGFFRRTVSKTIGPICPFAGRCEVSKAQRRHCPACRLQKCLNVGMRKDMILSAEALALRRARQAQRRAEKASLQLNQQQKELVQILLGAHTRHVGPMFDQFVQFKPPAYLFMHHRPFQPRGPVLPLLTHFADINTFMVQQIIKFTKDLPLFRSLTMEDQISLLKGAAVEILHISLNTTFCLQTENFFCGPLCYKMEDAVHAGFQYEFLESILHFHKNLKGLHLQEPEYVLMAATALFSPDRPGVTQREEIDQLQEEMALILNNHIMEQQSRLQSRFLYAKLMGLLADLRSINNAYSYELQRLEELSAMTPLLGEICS

Molecule	target or system	test	test system	conditions	scale	measurement	result
CC(=O)O[C@@H]1CC[C@@]2(C)[C@H](CC[C@@H]3[C@@H]2CC[C@]2(C)[C@@H]([C@H](C)CCC(=O)O)CC[C@@H]32)C1	vitamin D receptor	reporter gene, agonist	–	concentration not given	relative to: lithocholic acid	transcriptional activity	30 fold
O=c1[nH]c(=O)c2[nH]c(=O)c(=O)n(C[C@H](O)[C@H](O)[C@H](O)CO)c2[nH]1	Bacillus subtilis lumazine synthase	–	recombinant β60 capsid	pH 7.0, Tris·HCl buffer, together with: 2 constant, 1 varied	–	Ks	6.3 ± 0.5 µM
CC[C@H](C)[C@H](NC(=O)[C@H](CCCCN)NC(=O)[C@H](Cc1c[nH]cn1)NC(=O)[C@@H](N)CCCNC(=N)N)C(=O)N[C@@H](CC(C)C)C(=O)N[C@@H](Cc1c[nH]cn1)C(=O)N[C@@H](CCCNC(=N)N)C(=O)N[C@@H](CC(C)C)C(=O)N[C@@H](CC(C)C)C(=O)N[C@@H](CCC(N)=O)C(=O)N[C@@H](CCC(=O)O)C(=O)NCC(=O)N[C@@H](CO)C(=O)O	Nuclear receptor subfamily 1 group I member 3, with RXR (Mus musculus, UniProt O35627)	ITC	–	concentration not given, pH 7.2, 25 °C, together with: TCPOBOP	–	binding stoichiometry	0.98 ± 0.07
NS(=O)(=O)OC[C@@H]1C[C@@H](n2ccc3c(N[C@H]4CCc5ccccc54)ncnc32)C[C@@H]1O	NEDD8-activating enzyme	–	human patients	dose not given, single agent	–	pharmacodynamic active dose	≥ 25 mg/m²
Oc1cccc(-c2nc(N3CCOCC3)c3oc4ncccc4c3n2)c1	mTORC2	enzyme activity, inhibitor	–	together with: ATP 10 µM	–	IC50	125 nM
[Sr+2]	BK channel (rat)	channel activation, activator	hippocampal pyramidal cells, young rats	–	relative to: Ca2+	EC50 relative to Ca2+	19.6
Ivermectin	human FXR alpha	antagonist, Tox21 qHTS	–	concentration not given	–	activity	active
O=S(=O)(O)c1cc(N=C=S)ccc1C=Cc1ccc(N=C=S)cc1S(=O)(=O)O	band 3 anion exchanger (SLC4A1), human	chloride transport, reversible inhibitor	human erythrocytes	0 °C	–	Ki	30 nM
C[C@]12CC(O)[C@@H]3c4ccc(O)cc4CC[C@H]3[C@@H]1CCC2=O (some centres unmarked)	oestrogen receptor alpha	binding, competition binding	–	–	–	EC50	786 nM
COc1cc2c(c(OC)c1OC)-c1ccc(OC)c(=O)cc1[C@@H](NC(C)=O)CC2	human FXR alpha	antagonist, Tox21 qHTS or literature	–	concentration not given	–	activity call	inactive
Cc1c(C)c2c(c(C)c1O)CCC(C)(COc1ccc(CC3SC(=O)NC3=O)cc1)O2 (centres unmarked)	bile salt export pump	transport, inhibitor	–	concentration not given	–	BSEP inhibition	inhibited
C[C@]12CCC[C@@H]1[C@H]1CCc3cc(O)ccc3[C@@H]1CC2 (single isomer, unassigned)	oestrogen receptor alpha	binding, competition binding	–	–	–	EC50	25.3 nM
COc1cc2c(cc1OC)CN(CCc1ccc(NC(=O)c3cc(OC)c(OC)cc3NC(=O)c3cnc4ccccc4c3)cc1)CC2	P-glycoprotein	rhodamine-123 efflux, inhibitor	peripheral lymphocytes	concentration not given	–	duration of full inhibition	> 24 h
C[C@]12CC[C@@H]3c4cc(C56CC7CC(CC(C7)C5)C6)c(O)cc4CC[C@H]3[C@@H]1CC[C@@H]2O	oestrogen receptor alpha	binding, competition binding	–	–	–	EC50	> 10000 nM
Cc1cc2nc(NCCCO)n(CC(=O)c3cc(C(C)(C)C)c(O)c(C(C)(C)C)c3)c2cc1C	protein kinase C	enzyme activity and substrate phosphorylation	–	concentration not given	–	inhibition	no inhibition
CCOC(=O)C1=C(C)NC(C)=C(C(=O)OC)C1c1cccc([N+](=O)[O-])c1 (centres unmarked)	human KCa3.1	–	–	–	relative to: KCa3.1 IC50 over CaV1.x IC50	selectivity ratio	> 200 fold
CC(C)(C)c1nc(-c2cccc(NS(=O)(=O)c3c(F)cccc3F)c2F)c(-c2ccnc(N)n2)s1	hiPSC-derived cardiomyocytes	contractility	–	concentration not given, 72 h, at effective concentration	relative to: baseline	log2 fold change	0.71
Nc1ncnc2c1nc(Br)n2[C@@H]1O[C@@H]2COP(=O)(O)O[C@H]2[C@H]1O	PDE1C	cyclic nucleotide hydrolysis, substrate or inhibitor, isothermal titration calorimetry	–	–	–	Km or Ki	18000 nM

Molecule	target or system	test	test system	conditions	scale	measurement	result
C[C@]12CC=C3c4ccc(O)cc4CC[C@H]3[C@@H]1CC[C@@H]2O	oestrogen receptor beta	binding, competition binding	–	–	–	EC50	4.06 nM
N[C@@H](CO)C(=O)O	serine hydroxymethyltransferase (Escherichia coli)	substrate	–	–	–	Km	400 µM
N=C(N)c1ccc2cc(OC(=O)c3ccc(N=C(N)N)cc3)ccc2c1	acid-sensing ion channel	ion current	–	concentration not given, reported in literature	–	inhibition	inhibited
C[C@]12CC[C@@H]3c4ccc(O)cc4CC[C@H]3[C@@H]1CC[C@@H]2OC(=O)c1ccccc1	oestrogen receptor beta	binding, competition binding	–	–	–	EC50	16.8 nM
COc1cc(Nc2c(C#N)cnc3cc(OCCCN4CCN(C)CC4)c(OC)cc23)c(Cl)cc1Cl	hiPSC-derived cardiomyocytes	contractility	–	concentration not given, 72 h, at effective concentration	relative to: baseline	log2 fold change	1.92
CCC(C)c1c(O)ccc2c1CC[C@@H]1[C@@H]2CC[C@]2(C)C(=O)CC[C@@H]12 (some centres unmarked)	oestrogen receptor beta	binding, competition binding	–	–	–	EC50	> 10000 nM
Cc1ccc([N+](=O)[O-])cc1S(=O)(=O)N(C)/N=C/c1cnc2ccc(Br)cn12	ATR	kinase activity, inhibitor	–	together with: 10 µM ATP	–	IC50	21000 nM
O=C(Nc1n[nH]c2cc(-c3cccc(NS(=O)(=O)c4ccccc4F)c3)ccc12)C1CC1	CDKL2 (human)	DiscoverX scanMAX	–	1 µM	relative to: control	remaining binding	55 to 60%
Nc1nc2c(ncn2[C@@H]2O[C@@H]3COP(=O)(O)O[C@H]3[C@H]2O)c(=O)[nH]1	PDE1C	cyclic nucleotide hydrolysis, substrate or inhibitor, isothermal titration calorimetry	–	–	–	Km or Ki	4640 nM
N[C@@H](CC(=O)O)C(=O)O	Escherichia coli L-asparaginase	–	–	–	–	Kd	60000 to 160000 nM
COc1cc2c(cc1OC)CN(CCc1ccc(NC(=O)c3cc(OC)c(OC)cc3NC(=O)c3cnc4ccccc4c3)cc1)CC2	human P-glycoprotein	PET, refers to: (R)-[11C]verapamil	healthy human	2 mg/kg	relative to: baseline scan	brain distribution	1.25 fold
Nc1nc2[nH]cc(CCc3ccc(C(=O)N[C@@H](CCC(=O)O)C(=O)O)cc3)c2c(=O)[nH]1	thymidylate synthase	enzyme activity, inhibitor	–	–	relative to: polyglutamate over monoglutamate	potency increase	130 fold
COc1ccc2c(c1OC)N=C(NC(=O)c1cccnc1)N1CCN=C21	ATM	kinase activity, inhibitor	–	together with: 10 µM ATP	–	IC50	610 nM
O=P(O)(O)OC[C@H]1O[C@H](OP(=O)(O)OP(=O)(O)O)[C@H](O)[C@@H]1O	HGPRT Trypanosoma cruzi isoform A	substrate, refers to: IMP	–	20 to 215 µM, together with: hypoxanthine 60 µM	–	kcat	23 s⁻¹
KCNTATCATQRLANFLVHSSNNFGAILSSTNVGSNTY (amylin (human); not fully specified (C-terminus, bridges); cysteine pairing not given here; sequence looked up)	calcitonin receptor with RAMP1, human	–	peptide	–	relative to: calcitonin receptor alone	potency increase	11 fold
Cc1cc(C(C)Nc2ccccc2)c2oc(-c3ccncc3)cc(=O)c2c1 (centres unmarked)	PI4KIIIα	enzyme activity, inhibitor	–	together with: 10 µM ATP	–	IC50	> 100000 nM
Cc1csc(NC(=O)CSc2ccc(-c3ccccc3)nn2)n1	off-target panel	–	–	10 µM	–	inhibition	> 50%

Some of these lines once more:
Molecule	target or system	test	test system	conditions	scale	measurement	result
C[C@]12CC(O)[C@@H]3c4ccc(O)cc4CC[C@H]3[C@@H]1CCC2=O (some centres unmarked)	oestrogen receptor alpha	binding, competition binding	–	–	–	EC50	786 nM
C[C@]12CC[C@@H]3c4ccc(O)cc4CC[C@H]3[C@@H]1CC[C@@H]2OC(=O)c1ccccc1	oestrogen receptor beta	binding, competition binding	–	–	–	EC50	16.8 nM
Nc1ncnc2c1nc(Br)n2[C@@H]1O[C@@H]2COP(=O)(O)O[C@H]2[C@H]1O	PDE1C	cyclic nucleotide hydrolysis, substrate or inhibitor, isothermal titration calorimetry	–	–	–	Km or Ki	18000 nM
KCNTATCATQRLANFLVHSSNNFGAILSSTNVGSNTY (amylin (human); not fully specified (C-terminus, bridges); cysteine pairing not given here; sequence looked up)	calcitonin receptor with RAMP1, human	–	peptide	–	relative to: calcitonin receptor alone	potency increase	11 fold
[Sr+2]	BK channel (rat)	channel activation, activator	hippocampal pyramidal cells, young rats	–	relative to: Ca2+	EC50 relative to Ca2+	19.6
